Measured values of several laboratories.
Parts stem from different laboratories: compare values within a part only.

Study 1
Target: Fragile X messenger ribonucleoprotein 1, C-terminal low-complexity region (Fmr1, Mus musculus, UniProt P35922)
Technique: RNA Bind-n-Seq
Molecule type: RNA
Matrix: in vitro
Tested at: 200 nM
Notes: whole 134-nt RNA, ends assumed
Together with: 150 mM LiCl
Baseline: input library
Reading: higher = stronger binding
Endpoint: log2 enrichment
All molecules: 7-deaza-guanosine replaces G
GGGAGUUCUACAGUCCGACGAUCGUCCUGUGCUACACAUCGUAUGUACCGAAUCGGGGUGGGGUUUGGGGUUUUUUUGGGGAAAGUAUUAUGUUACGCCGUUCGGAUCUGCACUGGAAUUCUCGGGUGUCAAGG: -0.767
GGGAGUUCUACAGUCCGACGAUCUCAAGUCCUGUGCUACACAUCGUAUGUACCGAAUCGGGUUGGGUUGGGUUGGGGAAAGUAUUAUGUUACGCCGUUCGGAUCUGCACUUCCUGGAAUUCUCGGGUGUCAAGG: -0.407
GGGAGUUCUACAGUCCGACGAUCGUCCUGUGCUACACAUCGUAUGUACCGAAUCGGGUUUUUGGGUUUUUGGGUUUUUGGGAAAGUAUUAUGUUACGCCGUUCGGAUCUGCACUGGAAUUCUCGGGUGUCAAGG: -0.913

Study 2
Target: Histone acetyltransferase KAT6A, winged helix 2, GST fusion (KAT6A, Homo sapiens, UniProt Q92794, residues 85-181)
Technique: protein binding microarray
Molecule type: double-stranded DNA, one strand shown
Matrix: in vitro
Tested at: not given
Notes: 8-mer, flanks averaged, mean of 2 arrays, mostly near background
Baseline: not given
Reading: higher = stronger binding
Endpoint: E-score
Target sequence (chain): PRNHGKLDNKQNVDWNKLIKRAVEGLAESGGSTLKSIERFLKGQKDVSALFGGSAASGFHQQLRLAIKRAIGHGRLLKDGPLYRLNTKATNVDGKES
CCCCATTC: -0.163
AGCTAGTC: -0.109
CATACATG: -0.0651
CCTGCTGC: 0.0819
GAAAATTC: -0.0556
GACAGGGA: 0.0869

Study 3
Target: Interferon regulatory factor 7, full length, phosphomimetic (IRF7, Homo sapiens, UniProt Q92985, residues 1-503, S471D/S472D/S475D/S476D/S477D/S483D/S484D/S487D)
Chain of UniProt Q92985 (whole entry, unmodified, looked up): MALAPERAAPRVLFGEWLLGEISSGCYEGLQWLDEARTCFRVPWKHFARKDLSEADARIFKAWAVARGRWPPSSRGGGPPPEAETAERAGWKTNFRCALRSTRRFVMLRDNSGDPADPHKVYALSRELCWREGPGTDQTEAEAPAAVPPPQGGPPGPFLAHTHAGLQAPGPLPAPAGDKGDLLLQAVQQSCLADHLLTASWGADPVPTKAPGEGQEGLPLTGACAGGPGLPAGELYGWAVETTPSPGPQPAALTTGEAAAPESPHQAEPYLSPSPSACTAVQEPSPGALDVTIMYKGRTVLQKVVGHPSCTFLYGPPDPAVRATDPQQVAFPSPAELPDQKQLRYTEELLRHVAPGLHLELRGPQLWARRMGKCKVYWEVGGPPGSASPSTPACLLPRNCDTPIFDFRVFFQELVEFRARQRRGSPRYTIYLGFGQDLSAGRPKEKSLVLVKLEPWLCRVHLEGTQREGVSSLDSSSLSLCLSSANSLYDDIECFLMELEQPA
Technique: protein-binding microarray
Molecule type: double-stranded DNA, one strand shown
Matrix: in vitro
Tested at: 2200 nM top
Notes: 60-bp whole probe
Together with: salmon DNA 0.4 mg/ml
Baseline: random background probes
Reading: higher = stronger binding
Endpoint: fitted relative affinity
Constant ends, left off below: GCCTAGCAC … GTCTTGATTCGCTTGACGCTGCTG
GACGGACTGGCTATCGGGACGTGCTAG: -0.76 z-score
GACGATTTCGGGGCTGGAGACGTGCTA: 1.01 z-score
TTAGATCTCGGGTTTCGATTAGTGCTA: 2.88 z-score
TTAGATTTCGGGACTAGATTAGTGCTA: 0.677 z-score
TTAGGTTTCGACAGTGGGTTAGTGCTA: 1.37 z-score

Other studies, line by line
PhoQ, residues 284 288 289 292 302 303 TAVSDG — fold induction (PhoP, residues 12 14 15 18 19 SQCLL (Escherichia coli, UniProt P23836); Sort-seq, refers to: YFP reporter; E. coli; PhoQ-PhoP variant library, together with: 10 µM Mg2+; baseline: high Mg2+ state, higher = stronger signaling): 11

For quick reference, copied from above (study 3):
TTAGATTTCGGGACTAGATTAGTGCTA: 0.677 z-score
TTAGGTTTCGACAGTGGGTTAGTGCTA: 1.37 z-score
